Measurements pooled from the literature.
Protocols differ between the studies behind these lines. Values joined by “and” are separate records of one study, mostly repeats; a detail may differ. ± gives the spread as reported.

Structure (SMILES) | assay | system | conditions | how to read | endpoint | result
O=S(=O)([O-])C(F)(F)C(F)(F)C(F)(F)C(F)(F)C(F)(F)C(F)(F)C(F)(F)C(F)(F)F.[K+] | Western blot, refers to: Aldh1a1 | EtOH-fed mice, liver | dose not given | relative to: efavirenz | protein expression | increased
COc1ccc2c(c1)CC[C@@H]1[C@@H]2CC[C@]2(C)[C@@H](NCCCCCCN3C(=O)C=CC3=O)CC[C@@H]12 | calcium response, plateau | N2a, mouse | 1 µM, with: ATP 300 µM |  | inhibition | 45%
CNCC(=O)c1ccccc1 | ICSS total stimulations | rat |  |  | Emax | 164 % baseline
C[C@H]1O[C@@H](O[C@H]2CC[C@@]3(C)[C@@H](CC[C@]4(C)[C@@H]3C=C[C@]35OC[C@@]6(CCC(C)(C)C[C@H]63)[C@@H](O)C[C@]54C)[C@]2(C)CO)[C@H](O)[C@@H](O[C@@H]2O[C@H](CO)[C@@H](O)[C@H](O)[C@H]2O)[C@H]1O | H&E staining | hepatic SIRT1 knockdown mice, no ethanol, liver | dose not given, AAV8-TBG-shRNA, high dose |  | steatosis area | 11.8% and 11.6% and 13.1% and 13.6% and 11.5% and 9.34%
CC[C@H](C)[C@@H]1NC(=O)[C@@H]2CCCN2C(=O)[C@H](CC(C)C)NC(=O)[C@H](CC(C)C)NC(=O)CNC(=O)[C@@H](NC(=O)[C@@H](NC(=O)[C@H](CC(=O)O)NC(=O)CNC(=O)[C@@H](NC(=O)[C@H](C)NC(=O)CNC(=O)[C@H](CCCCN)NC(=O)[C@H](CC(C)C)NC(=O)[C@H](CC(C)C)NC(=O)[C@H](CCCCN)NC(=O)CNC(=O)[C@@H](NC(=O)[C@@H](N)CC(C)C)C(C)C)C(C)C)C(C)C)CSSC[C@@H](C(=O)O)NC1=O | RNA-seq, refers to: novel.411 mRNA | mouse traumatic brain injury, frontal cortex and hippocampus | dose not given | relative to: TBI plus compound vs TBI | log2 fold change | -1.8
FC(F)(F)c1ccc2c(c1)[C@@H]1CNC[C@H]2C1 | intermittent two-bottle choice | Wistar rat, 20% ethanol drinking | subcutaneous, 10 mg/kg, 24 h | relative to: ethanol over total fluid intake | ethanol preference | 29 ± 3%
NC(=O)c1cccc(-c2c[nH]c3ncnc(N4CCOCC4)c23)c1 | Western blot, refers to: MOB1 Thr35 phosphorylation | C57BL/6 mice, liver | intraperitoneal, 20 mg/kg, 1 h | relative to: vehicle | phospho-MOB1 level | decreased
Cc1cn(-c2cc(NC(=O)c3ccc(C)c(Nc4nccc(-c5cccnc5)n4)c3)cc(C(F)(F)F)c2)cn1 |  | Alzheimer's disease patients | 300 mg, 12 months, group mean | direction not given | MMSE score | 16.2 ± 4.6
[131I-].[Na+] | ATA response criteria | human, papillary thyroid cancer with metastases | 3700 MBq |  | indeterminate response | 17.6%
Cc1nc(Nc2ccc(CC(=O)O)cc2)nc(Nc2ccc(F)c(C(F)(F)F)c2)c1C | refers to: FASN | C57BL/6J mice, high-fat diet, liver | intraperitoneal, 0.3 mg/kg daily, 60% fat diet 12 weeks, dosed last four | relative to: vehicle | mRNA level | no effect
NNc1ccccc1 | hydrazine ligation kinetics, absorbance |  | concentration not given, 40 s, with: 2-formylphenylboronic acid |  | normalised absorbance | 0.907
CS(=O)(=O)c1ccc(-c2nnc(/C=C/c3nnc(-c4ccc(C#N)cc4)o3)n2-c2ccccc2Cl)nc1 | RNA-seq GSEA, refers to: HALLMARK_FATTY_ACID_METABOLISM | organoids, small intestinal, Apc Q1405X, mouse | dose not given, 3 days, knockout organoids | relative to: DMSO, direction not given | normalized enrichment score | 2.01
C[C@]1(CO)Cc2ncn(-c3ccc(C#N)c(Cl)c3)c2C(=O)O1 |  | Japanese subjects | 80 mg single dose |  | urinary potassium excretion 0-24 h | 31.7 mmol
C=CC(=O)Nc1cc(Nc2ncc(Cl)c(Nc3ccccc3C(=O)C(=O)N(C)C)n2)c(OC)cc1N1CCN(C)CC1 | RECIST v1.1 best response | human EGFR T790M NSCLC | oral, 100 mg/day, per-protocol set |  | patients with progressive disease | 66.7%
C[C@]12CC[C@H](O)C[C@H]1CC[C@@H]1[C@@H]2CC[C@]2(C)[C@@H](c3ccc(=O)oc3)CC[C@]12O |  | female nude mouse LCC2 xenograft | 1.0 mg/kg, day 9, tamoxifen-resistant |  | tumour volume | 44 mm3 and 68.9 mm3 and 32.2 mm3 and 34.7 mm3 and 37.8 mm3 and 46.6 mm3 and 33.2 mm3
COc1cccc(NCC(F)Cn2c3ccc(Br)cc3c3cc(Br)ccc32)n1 (stereo not shown) | survival of newborn neurons | Mus musculus, BrdU-labelled newborn neurons | intraperitoneal, 7 days |  | minimum effective dose | 1 mg/kg/day
CN1CCN(S(=O)(=O)c2cc([N+](=O)[O-])ccc2N(CCOS(C)(=O)=O)CCOS(C)(=O)=O)CC1 |  | NSG mice, sample CC PDX | intraperitoneal, 25 mg/kg weekly x3 |  | event-free survival | 5.5 days
CC(C)=CCC/C(C)=C/C=O | pH gradient | Escherichia coli inverted membrane vesicles |  |  | IC50 | > 1 mM
CCCCC1CNC2CCc3ccc(OC)cc3C12.Cl (racemic) | RNA sequencing, refers to: complex III subunit genes | SAMP8 mice, hippocampus | intracerebroventricular, 1.0 µg/µL, 24 h | relative to: vehicle | mRNA level | increased
CCCCC1(CCCC)CN(c2ccccc2)c2cc(SC)c(OCC(=O)N[C@@H](C(=O)NCC(=O)O)c3ccccc3)cc2S(=O)(=O)C1 | refers to: HDL cholesterol | human, serum | 10 mg once daily, day 14 |  | serum HDL-C | 47.5 mg/dL
[Cl][Ru-]([Cl])([Cl])[Cl].[Na+].c1ccc2[nH]ncc2c1.c1ccc2[nH]ncc2c1 | CT, RECIST 1.1 | human | 780 mg/m2 |  | duration of response | 25 weeks
CC[C@@H](C)[C@@H](NC(=O)[C@@H](Cc1ccc(O)cc1)NC(=O)[C@H]1CCCN1C(=O)[C@@H](CCCNC(=N)N)NC(=O)[C@H](N)Cc1c[nH]cn1)C(=O)N[C@H](C)C(=O)N[C@H](Cc1c[nH]cn1)C(=O)N[C@H](CCCNC(=N)N)C(=O)N[C@H](CCCCNC(=O)c1cccc(S(=O)(=O)F)c1)C(=O)N[C@H](Cc1ccc(O)cc1)C(=O)N[C@H](CO)C(=O)N[C@H](Cc1ccccc1)C(N)=O | ex vivo flow cytometry | B16 tumour-bearing mice, tumour-draining lymph node | dose not given |  | IFN-γ+ CD8+ T cell frequency | 4.24% and 6.61% and 4.84% and 7.48% and 3.77%

Some of these lines once more:
Structure (SMILES) | assay | system | conditions | how to read | endpoint | result
CC[C@H](C)[C@@H]1NC(=O)[C@@H]2CCCN2C(=O)[C@H](CC(C)C)NC(=O)[C@H](CC(C)C)NC(=O)CNC(=O)[C@@H](NC(=O)[C@@H](NC(=O)[C@H](CC(=O)O)NC(=O)CNC(=O)[C@@H](NC(=O)[C@H](C)NC(=O)CNC(=O)[C@H](CCCCN)NC(=O)[C@H](CC(C)C)NC(=O)[C@H](CC(C)C)NC(=O)[C@H](CCCCN)NC(=O)CNC(=O)[C@@H](NC(=O)[C@@H](N)CC(C)C)C(C)C)C(C)C)C(C)C)CSSC[C@@H](C(=O)O)NC1=O | RNA-seq, refers to: novel.411 mRNA | mouse traumatic brain injury, frontal cortex and hippocampus | dose not given | relative to: TBI plus compound vs TBI | log2 fold change | -1.8
FC(F)(F)c1ccc2c(c1)[C@@H]1CNC[C@H]2C1 | intermittent two-bottle choice | Wistar rat, 20% ethanol drinking | subcutaneous, 10 mg/kg, 24 h | relative to: ethanol over total fluid intake | ethanol preference | 29 ± 3%
